Results of several laboratories.
Protocols differ between the studies behind these lines. Values joined by “and” are separate records of one study, mostly repeats; a detail may differ.

SMILES	tested on	assay	system	conditions	how to read	endpoint	result
CCOc1nc(N)ncc1-c1cn([C@@H]2O[C@](F)(COC(=O)C(C)C)[C@@H](OC(=O)C(C)C)[C@H]2OC(=O)C(C)C)cn1	Dengue virus	viral replication	Huh-7, DENV-4	48 h	–	EC50	27 µM
COc1cc(/C=C/c2ccc(O)cc2)cc(OC)c1	human iPSC-derived cardiomyocytes	MyBP-C/MYH ratio, plate-normalised SD score	–	concentration not given, primary screen	direction not given	activity score	17.1
COc1nc(N)ncc1-c1cn([C@@H]2O[C@](F)(CO)[C@@H](O)[C@H]2O)cn1	Dengue virus	viral replication	Huh-7, DENV-4	48 h	–	EC50	> 50 µM
Oc1ccccc1-c1n[nH]cc1-c1ccnc2ccccc12	KIN2 (Candida albicans)	kinase binding, MIB/MS competition	Candida albicans lysate	10 µM	reference: DMSO	log2 fold change	0.04
C=C1C(=O)O[C@H]2[C@H]1CC/C(C)=C/CC[C@@]1(C)O[C@@H]21	human iPSC-derived cardiomyocytes	MyBP-C/MYH ratio, plate-normalised SD score	–	concentration not given, primary screen	direction not given	activity score	8.5
CC[S+]([O-])c1nc(-c2ccccc2)cc(C(F)(F)F)n1 (stereo not shown)	importin beta-1	SREBP1 nuclear import, high content imaging	HeLa Kyoto	5.01 µM, 3 h, added: glucose and MG132	–	cells with nuclear SREBP1	90.6% and 91.6% and 87.7% and 88.9%
[Cl-].[Cl-].[Pt+2].[Ru+2].c1ccc(-c2nc3ccccc3nc2-c2ccccn2)nc1.c1cnc2c(c1)ccc1cccnc12.c1cnc2c(c1)ccc1cccnc12	pcDNA supercoiled plasmid	agarose gel electrophoresis	–	50 µM, photoinduced cleavage, added: 0.1 µM pcDNA	–	supercoiled DNA	84.5%
OC(CCN1CCCCC1)(c1ccccc1)c1ccccc1	human iPSC-derived cardiomyocytes	MyBP-C/MYH ratio, plate-normalised SD score	–	concentration not given, primary screen	direction not given	activity score	3.5
CCn1cc(-c2cc(Cn3ccnc3)cc3c2CCN([C@H](c2cc(OC)ccn2)C2CC2)C3=O)c(C(F)(F)F)n1	NCI-H838	cell growth, inhibitor	–	120 h	–	EC50	> 30 µM
CCC(=O)OCC(=O)[C@@]1(OC(=O)CC)[C@@H](C)C[C@H]2[C@@H]3CCC4=CC(=O)C=C[C@]4(C)[C@@]3(Cl)[C@@H](O)C[C@@]21C	human iPSC-derived cardiomyocytes	MyBP-C/MYH ratio, plate-normalised SD score	–	concentration not given, primary screen	direction not given	activity score	-3.1
Cn1cc(-c2ccc(-c3cncc(Cl)c3N3CCC4(CCNC4=O)CC3)cc2)cn1	COLO 205	gene expression, microarray, item: LCN2 mRNA	–	concentration not given, 6 h	reference: untreated cells	log2 fold change	2.11
COc1cnc2cccc(N3CCc4c(cc(Cn5ccnc5C)cc4-c4cn(C)nc4C(F)(F)F)C3=O)c2c1	COLO 320	cell growth, inhibitor	–	120 h	–	EC50	15.9 µM
CO/N=C1\C[C@]2(C[C@@H]3C[C@@H](C/C=C(\C)C[C@@H](C)/C=C/C=C4\CO[C@@H]5[C@H](O)C(C)=C[C@@H](C(=O)O3)[C@]45O)O2)O[C@H](/C(C)=C/C(C)C)[C@H]1C	human iPSC-derived cardiomyocytes	MyBP-C/MYH ratio, plate-normalised SD score	–	concentration not given, primary screen	direction not given	activity score	12
COc1ncc(-c2cn([C@@H]3O[C@](F)(COC(=O)C(C)C)[C@@H](OC(=O)C(C)C)[C@H]3OC(=O)C(C)C)cn2)c(N)n1	Dengue virus	viral replication	Huh-7, DENV-4	48 h	–	EC50	> 100 µM
CCS(=O)(=O)c1nc(C2CC2)cc(C(F)(F)F)n1	importin beta-1	SREBP1 nuclear import, high content imaging	HeLa Kyoto	0.02 µM, 3 h, added: glucose and MG132	–	cells with nuclear SREBP1	96.1% and 86.9% and 89.2% and 88.6%
C1CCC(C(CC2CCCCN2)C2CCCCC2)CC1 (stereo not shown)	MYBPC3 iPSC cardiomyocytes	plate-normalised	–	concentration not given, 24 h, hit retest	–	MyBP-C level	2.2%
CC(Nc1nc(N2CCCC2)nc2ccccc12)c1ccccc1 (stereo not shown)	importin beta-1	SREBP1 nuclear import, high content imaging	HeLa Kyoto	0.5 µM, 3 h, added: glucose and MG132	–	cells with nuclear SREBP1	90.1% and 85.6% and 86.6% and 88.6%
O=c1cc[nH]c(=O)[nH]1	human iPSC-derived cardiomyocytes	MyBP-C/MYH ratio, plate-normalised SD score	–	concentration not given, primary screen	direction not given	activity score	5.5
c1coc(-c2n[nH]cc2-c2ccnc3ccccc23)c1	MPS1 (Candida albicans)	kinase binding, MIB/MS competition	Candida albicans lysate	10 µM	reference: DMSO	log2 fold change	-0.2
CCn1cc(-c2cc(Cn3ccoc3=N)cc3c2CCN([C@@H](C)c2cc(OC)ccn2)C3=O)c(C(F)(F)F)n1	NCI-H838	cell growth, inhibitor	–	120 h	–	EC50	0.126 µM
[Cl-].[Cl-].[Pt+2].[Ru+2].c1ccc(-c2nc3cc4ccccc4cc3nc2-c2ccccn2)nc1.c1cnc2c(c1)ccc1cccnc12.c1cnc2c(c1)ccc1cccnc12	pcDNA supercoiled plasmid	agarose gel electrophoresis	–	50 µM, photoinduced cleavage, added: 0.1 µM pcDNA	–	nicked circular DNA	14%
CCCCCCCCCc1ccc(OCCOCCOCCOCCOCCOCCOCCOCCOCCO)cc1	MYBPC3 iPSC cardiomyocytes	plate-normalised	–	concentration not given, 24 h, hit retest	–	MyBP-C level	19.1%
[Cl-].[Cl-].[Pt+2].[Ru+2].c1ccc(-c2nccnc2-c2ccccn2)nc1.c1cnc2c(c1)ccc1cccnc12.c1cnc2c(c1)ccc1cccnc12	pcDNA supercoiled plasmid	agarose gel electrophoresis	–	20 µM, photoinduced cleavage, added: 0.1 µM pcDNA	–	nicked circular DNA	22.6%
Nc1ncncc1-c1cn([C@@H]2O[C@](F)(CO)[C@@H](O)[C@H]2O)cn1	Dengue virus	viral replication	Huh-7, DENV-2	48 h	–	EC50	> 100 µM
COC(=O)[C@H](Cc1c[nH]c2ccccc12)NCc1cc2ccccc2nc1OC	Pseudomonas aeruginosa	–	–	4 µg/mL, added: pentamidine 50 µM	reference: control	growth	99.3%

Excerpt of the above:
SMILES	tested on	assay	system	conditions	how to read	endpoint	result
COc1cnc2cccc(N3CCc4c(cc(Cn5ccnc5C)cc4-c4cn(C)nc4C(F)(F)F)C3=O)c2c1	COLO 320	cell growth, inhibitor	–	120 h	–	EC50	15.9 µM
O=c1cc[nH]c(=O)[nH]1	human iPSC-derived cardiomyocytes	MyBP-C/MYH ratio, plate-normalised SD score	–	concentration not given, primary screen	direction not given	activity score	5.5
COc1ncc(-c2cn([C@@H]3O[C@](F)(COC(=O)C(C)C)[C@@H](OC(=O)C(C)C)[C@H]3OC(=O)C(C)C)cn2)c(N)n1	Dengue virus	viral replication	Huh-7, DENV-4	48 h	–	EC50	> 100 µM
CCCCCCCCCc1ccc(OCCOCCOCCOCCOCCOCCOCCOCCOCCO)cc1	MYBPC3 iPSC cardiomyocytes	plate-normalised	–	concentration not given, 24 h, hit retest	–	MyBP-C level	19.1%
